# Measurements gathered from unrelated publications.
# Numbered parts are unrelated; each lists some results of a single study.
# Chain of UniProt P06241 (whole entry, looked up): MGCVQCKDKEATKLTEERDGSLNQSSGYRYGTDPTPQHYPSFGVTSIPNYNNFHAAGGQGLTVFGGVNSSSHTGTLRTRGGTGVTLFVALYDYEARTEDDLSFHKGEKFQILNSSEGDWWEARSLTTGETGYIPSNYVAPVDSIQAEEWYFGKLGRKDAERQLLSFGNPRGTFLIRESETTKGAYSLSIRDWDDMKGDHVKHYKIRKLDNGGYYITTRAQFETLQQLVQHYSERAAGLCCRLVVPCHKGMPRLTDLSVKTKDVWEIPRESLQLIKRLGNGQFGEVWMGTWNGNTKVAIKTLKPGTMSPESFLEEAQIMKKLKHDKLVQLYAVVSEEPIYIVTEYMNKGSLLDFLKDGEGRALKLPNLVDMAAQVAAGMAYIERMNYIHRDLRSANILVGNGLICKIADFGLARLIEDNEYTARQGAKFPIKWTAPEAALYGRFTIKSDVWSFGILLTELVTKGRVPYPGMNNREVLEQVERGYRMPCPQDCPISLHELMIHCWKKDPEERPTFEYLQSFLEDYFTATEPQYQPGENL
# Chain of UniProt P78356 (whole entry, looked up): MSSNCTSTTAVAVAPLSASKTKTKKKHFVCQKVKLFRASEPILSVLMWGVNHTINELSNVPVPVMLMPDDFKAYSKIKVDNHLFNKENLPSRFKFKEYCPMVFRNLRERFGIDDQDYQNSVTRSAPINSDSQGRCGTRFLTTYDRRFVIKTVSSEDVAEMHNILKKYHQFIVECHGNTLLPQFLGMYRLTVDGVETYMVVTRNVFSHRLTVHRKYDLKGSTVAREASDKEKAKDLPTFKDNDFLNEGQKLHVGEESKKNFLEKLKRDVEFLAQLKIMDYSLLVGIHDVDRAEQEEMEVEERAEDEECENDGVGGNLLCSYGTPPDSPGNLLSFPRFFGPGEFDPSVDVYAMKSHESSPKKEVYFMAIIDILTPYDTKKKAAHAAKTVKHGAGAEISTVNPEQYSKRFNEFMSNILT
# Chain of UniProt O00506 (whole entry, looked up): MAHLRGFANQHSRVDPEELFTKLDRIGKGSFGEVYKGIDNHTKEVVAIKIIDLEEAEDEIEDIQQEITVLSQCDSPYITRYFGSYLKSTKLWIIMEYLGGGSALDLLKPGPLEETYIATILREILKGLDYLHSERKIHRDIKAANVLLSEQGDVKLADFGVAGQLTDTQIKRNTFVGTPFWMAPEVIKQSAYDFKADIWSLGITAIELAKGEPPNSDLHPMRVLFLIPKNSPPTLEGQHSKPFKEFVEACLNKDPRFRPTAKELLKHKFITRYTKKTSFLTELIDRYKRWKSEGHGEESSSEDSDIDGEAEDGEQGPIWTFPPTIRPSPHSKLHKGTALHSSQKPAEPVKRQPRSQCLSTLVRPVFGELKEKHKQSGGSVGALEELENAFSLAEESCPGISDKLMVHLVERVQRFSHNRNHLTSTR
# Chain of UniProt Q6XUX3 (whole entry, looked up): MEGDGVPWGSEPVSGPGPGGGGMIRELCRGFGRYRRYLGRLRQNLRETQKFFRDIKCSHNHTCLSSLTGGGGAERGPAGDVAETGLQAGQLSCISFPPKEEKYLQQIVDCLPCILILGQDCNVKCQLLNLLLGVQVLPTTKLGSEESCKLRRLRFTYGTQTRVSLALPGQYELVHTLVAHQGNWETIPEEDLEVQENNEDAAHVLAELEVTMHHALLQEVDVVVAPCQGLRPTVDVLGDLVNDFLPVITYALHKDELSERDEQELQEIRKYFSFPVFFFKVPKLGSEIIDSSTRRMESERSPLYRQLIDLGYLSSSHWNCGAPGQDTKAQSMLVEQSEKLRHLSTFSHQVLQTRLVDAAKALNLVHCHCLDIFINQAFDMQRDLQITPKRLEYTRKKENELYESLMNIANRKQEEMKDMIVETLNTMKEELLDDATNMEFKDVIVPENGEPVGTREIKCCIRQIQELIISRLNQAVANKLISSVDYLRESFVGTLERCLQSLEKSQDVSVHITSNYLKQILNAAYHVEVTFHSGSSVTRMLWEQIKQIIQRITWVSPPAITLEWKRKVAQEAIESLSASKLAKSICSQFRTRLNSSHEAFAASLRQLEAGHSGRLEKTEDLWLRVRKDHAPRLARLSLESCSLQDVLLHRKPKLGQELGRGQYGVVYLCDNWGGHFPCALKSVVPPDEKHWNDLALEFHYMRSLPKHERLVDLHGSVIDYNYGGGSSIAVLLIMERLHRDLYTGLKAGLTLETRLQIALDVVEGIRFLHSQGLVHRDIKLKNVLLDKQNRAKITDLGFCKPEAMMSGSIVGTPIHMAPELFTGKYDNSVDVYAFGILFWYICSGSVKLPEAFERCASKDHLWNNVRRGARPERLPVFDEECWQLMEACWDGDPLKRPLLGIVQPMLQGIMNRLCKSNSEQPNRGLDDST
# Chain of UniProt Q96RG2 (whole entry, looked up): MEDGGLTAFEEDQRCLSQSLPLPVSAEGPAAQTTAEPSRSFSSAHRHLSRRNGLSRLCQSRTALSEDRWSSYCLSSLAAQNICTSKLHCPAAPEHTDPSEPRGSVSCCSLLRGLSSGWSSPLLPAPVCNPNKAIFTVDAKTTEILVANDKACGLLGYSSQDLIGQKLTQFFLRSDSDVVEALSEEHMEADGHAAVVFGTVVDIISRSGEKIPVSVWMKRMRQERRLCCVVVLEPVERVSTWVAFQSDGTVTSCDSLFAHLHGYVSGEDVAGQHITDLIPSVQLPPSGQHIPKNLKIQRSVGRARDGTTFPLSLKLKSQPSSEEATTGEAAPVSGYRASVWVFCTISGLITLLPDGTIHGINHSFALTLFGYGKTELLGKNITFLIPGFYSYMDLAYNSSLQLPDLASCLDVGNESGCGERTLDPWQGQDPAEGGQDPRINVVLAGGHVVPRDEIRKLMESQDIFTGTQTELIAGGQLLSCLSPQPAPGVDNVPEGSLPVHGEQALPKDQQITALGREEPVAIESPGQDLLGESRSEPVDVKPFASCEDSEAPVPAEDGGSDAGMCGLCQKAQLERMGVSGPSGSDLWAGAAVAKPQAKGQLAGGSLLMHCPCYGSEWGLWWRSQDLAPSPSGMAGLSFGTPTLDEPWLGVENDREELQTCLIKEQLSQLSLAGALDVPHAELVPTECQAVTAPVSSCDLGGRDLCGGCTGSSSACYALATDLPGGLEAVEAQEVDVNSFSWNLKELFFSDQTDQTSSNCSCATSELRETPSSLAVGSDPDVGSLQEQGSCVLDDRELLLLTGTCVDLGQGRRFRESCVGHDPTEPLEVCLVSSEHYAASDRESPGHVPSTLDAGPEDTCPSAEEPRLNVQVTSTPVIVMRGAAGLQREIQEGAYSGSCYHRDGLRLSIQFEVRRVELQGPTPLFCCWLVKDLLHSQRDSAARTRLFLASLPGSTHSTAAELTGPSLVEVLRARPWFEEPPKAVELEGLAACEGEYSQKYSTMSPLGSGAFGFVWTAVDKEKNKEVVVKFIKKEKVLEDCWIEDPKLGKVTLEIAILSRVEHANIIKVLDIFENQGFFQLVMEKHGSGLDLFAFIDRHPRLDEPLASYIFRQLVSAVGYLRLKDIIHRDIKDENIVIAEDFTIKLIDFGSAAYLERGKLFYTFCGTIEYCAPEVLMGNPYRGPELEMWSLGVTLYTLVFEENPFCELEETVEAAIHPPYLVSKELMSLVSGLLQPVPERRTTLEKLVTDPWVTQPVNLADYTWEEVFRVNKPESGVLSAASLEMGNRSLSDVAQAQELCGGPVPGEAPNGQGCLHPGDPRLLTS
# Chain of UniProt P35916 (whole entry, looked up): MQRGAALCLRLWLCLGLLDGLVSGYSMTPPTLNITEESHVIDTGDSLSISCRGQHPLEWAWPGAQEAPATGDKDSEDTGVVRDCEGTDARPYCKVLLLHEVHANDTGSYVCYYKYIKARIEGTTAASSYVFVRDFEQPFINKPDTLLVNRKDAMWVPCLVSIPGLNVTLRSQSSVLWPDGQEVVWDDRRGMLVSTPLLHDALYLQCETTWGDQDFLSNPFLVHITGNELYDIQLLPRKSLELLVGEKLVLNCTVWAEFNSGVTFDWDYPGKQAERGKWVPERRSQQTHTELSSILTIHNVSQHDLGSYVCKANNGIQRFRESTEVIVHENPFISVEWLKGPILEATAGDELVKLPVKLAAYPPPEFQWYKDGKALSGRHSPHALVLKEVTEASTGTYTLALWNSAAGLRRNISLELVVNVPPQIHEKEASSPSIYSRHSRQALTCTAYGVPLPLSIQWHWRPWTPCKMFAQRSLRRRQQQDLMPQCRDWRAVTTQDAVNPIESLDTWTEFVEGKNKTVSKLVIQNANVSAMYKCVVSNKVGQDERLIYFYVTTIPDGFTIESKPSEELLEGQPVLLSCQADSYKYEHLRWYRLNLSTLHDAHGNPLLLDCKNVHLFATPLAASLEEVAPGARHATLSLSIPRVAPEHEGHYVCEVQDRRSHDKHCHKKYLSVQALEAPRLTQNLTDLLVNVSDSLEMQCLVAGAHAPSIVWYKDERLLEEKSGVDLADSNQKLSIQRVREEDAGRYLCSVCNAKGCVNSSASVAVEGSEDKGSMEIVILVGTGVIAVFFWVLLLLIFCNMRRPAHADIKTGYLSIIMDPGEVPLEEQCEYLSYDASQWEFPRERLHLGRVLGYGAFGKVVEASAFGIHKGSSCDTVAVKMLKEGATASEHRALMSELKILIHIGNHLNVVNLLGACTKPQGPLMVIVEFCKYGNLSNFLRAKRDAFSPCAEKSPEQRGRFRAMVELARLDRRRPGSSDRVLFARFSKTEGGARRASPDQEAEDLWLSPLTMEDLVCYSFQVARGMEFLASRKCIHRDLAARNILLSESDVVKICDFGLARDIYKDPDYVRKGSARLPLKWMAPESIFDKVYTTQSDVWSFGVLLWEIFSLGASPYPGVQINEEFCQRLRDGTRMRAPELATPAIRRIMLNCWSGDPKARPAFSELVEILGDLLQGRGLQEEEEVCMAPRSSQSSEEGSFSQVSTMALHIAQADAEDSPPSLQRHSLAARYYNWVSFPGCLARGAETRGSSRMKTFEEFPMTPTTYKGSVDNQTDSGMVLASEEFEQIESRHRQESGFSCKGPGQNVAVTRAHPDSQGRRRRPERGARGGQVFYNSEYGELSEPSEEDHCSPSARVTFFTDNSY

# Sample 1
# Structure (SMILES): CC(C)n1cnc(-c2ccc(F)cc2)c1-c1ncc(C(=O)Nc2ccc(N3CCN(C)CC3)cc2)[nH]1
technique,item,species,route,dose,notes,patients with TEAE [%]
phase 2a trial,,idiopathic pulmonary fibrosis patients,oral,dose not given,"urine red cells, grade 1, all arms",1
phase 2a trial,,idiopathic pulmonary fibrosis patients,oral,60 mg once daily,"disc protrusion, grade 1",1
phase 2a trial,,patients with idiopathic pulmonary fibrosis,,60 mg once daily,"atopic dermatitis, grade 4",0
,LDL increased,idiopathic pulmonary fibrosis patients,,30 mg once daily,,0
phase 2a trial,,idiopathic pulmonary fibrosis patients,oral,60 mg once daily,"CK-MB increased, grade 4",0
phase 2a trial,,idiopathic pulmonary fibrosis patients,oral,60 mg once daily,"CK-MB increased, grade 1",1
phase 2a trial,,idiopathic pulmonary fibrosis patients,oral,dose not given,"CK-MB increased, grade 1, all arms",1
phase 2a trial,,patients with idiopathic pulmonary fibrosis,,60 mg once daily,"eye swelling, grade 4",0
phase 2a trial,,idiopathic pulmonary fibrosis patients,oral,dose not given,"urine red cells, grade 2, all arms",0
phase 2a trial,,idiopathic pulmonary fibrosis patients,oral,30 mg once daily,"urine red cells, grade 3",0
phase 2a trial,,idiopathic pulmonary fibrosis patients,oral,30 mg once daily,"renal/urinary disorders, grade 1",2
phase 2a trial,,idiopathic pulmonary fibrosis patients,oral,30 mg once daily,"blood/lymphatic disorders, grade 1",2
phase 2a trial,,idiopathic pulmonary fibrosis patients,oral,dose not given,"CK-MB increased, grade 4, all arms",0

# Sample 2
# Structure (SMILES): CN(C(=O)c1ccccc1)c1cc(N(C)c2ccc3c(c2)CCc2ccc(C(=O)NCCN4CCOCC4)cc2C3=O)ccc1F
# Effect on: cell-free assay
# Technique: competition with immobilised ligand
# Tested at: 1 µM
target,remaining binding
"GAK (Homo sapiens, UniProt O14976)",92%
"CSNK1E (Homo sapiens, UniProt P49674)",100%
"DDR2 (Homo sapiens, UniProt Q16832)",100%
"LTK (Homo sapiens, UniProt P29376)",100%
"Tyrosine-protein kinase ABL1, phosphorylated (ABL1, Homo sapiens, UniProt P00519, Y253F)",100%
"HIPK3 (Homo sapiens, UniProt Q9H422)",100%
"Cyclin-dependent kinase 4, with cyclin D3 (CDK4, Homo sapiens, UniProt P11802)",100%
"CAMK2B (Homo sapiens, UniProt Q13554)",99%
"PRKG2 (Homo sapiens, UniProt Q13237)",82%
"DSTYK (Homo sapiens, UniProt Q6XUX3)",83%
"EGFR (Homo sapiens, UniProt P00533, A750P/del747-749)",94%
"Ribosomal protein S6 kinase alpha-3, C-terminal kinase domain (RPS6KA3, Homo sapiens, UniProt P51812)",83%
"CILK1 (Homo sapiens, UniProt Q9UPZ9)",88%
"Tyrosine-protein kinase JAK3, JH1 (JAK3, Homo sapiens, UniProt P52333)",100%
"WNK4 (Homo sapiens, UniProt Q96J92)",100%
"NEK7 (Homo sapiens, UniProt Q8TDX7)",91%
"PIP4K2B (Homo sapiens, UniProt P78356)",72%
"RIPK4 (Homo sapiens, UniProt P57078)",100%
"IKBKE (Homo sapiens, UniProt Q14164)",79%
"FLT3 (Homo sapiens, UniProt P36888, D835V)",100%
"NEK4 (Homo sapiens, UniProt P51957)",89%
"PDGFRB (Homo sapiens, UniProt P09619)",98%
"EIF2AK2 (Homo sapiens, UniProt P19525)",53%

# Sample 3
# Species: mouse
# Sample: microsomes or S9
# Tested at: 2 µM
# Time: 0.5 h
Structure (SMILES),remaining compound
Cc1cc(C)cc(C(=O)c2c(C(C)C)c(=O)[nH]c(=O)n2Cc2cc(F)nc(F)c2)c1,54.4%
COCc1nc(CCNS(=O)(=O)c2cccc(OC)c2)no1,0%
COc1ccc(/C=C/c2cc(OC)cc3oc(-c4ccc(OC)cc4)c(-c4cc(OC)cc(OC)c4)c23)cc1,91.7%
Cc1cc(C)n2c(CN3CCN(C)C[C@@H]3C(C)C)cnc2n1,94.9%
CCc1sc(C(=O)Nn2cnnc2)cc1Br,81.9%
Cc1ccccc1Cc1c(C)nc2c(C(=O)N3CCc4c(c(-c5nncn5C)nn4C)C3)cnn2c1C,0.0604%
Cn1c(=O)c2c(n(C)c1=O)n(CC(=O)NC(C)(C)C)c(=O)n2C,63.1%
CCn1cc(S(=O)(=O)N2CCc3n[nH]c(=O)n3CC2)cn1,36.7%
COc1cc(=O)[nH]cc1C(=O)N1CCC[C@H](CN2CCOCC2)C1,96.2%
COC(=O)[C@@H]1C[C@H](C(=O)OC)CN(c2ccnc(N3C[C@H](C(=O)OC)C[C@H](C(=O)OC)C3)n2)C1,0.404%
CCC(C(=O)Nc1c(C)cc(C)cc1C)n1nc(C)c2c(C)onc2c1=O (stereo not drawn),21.3%
O=C(Nc1ccccc1Cl)NC1(C(=O)N2CCC(O)CC2)CCCCC1,81.6%
N#Cc1ccccc1N1CCN(C2CCC(C(=O)Nc3cccc(Cl)c3Cl)C2)CC1 (stereo not drawn),0.755%
COCCNC(=O)[C@@H]1C[C@H](Oc2cccnc2)CN1C(=O)c1ccc(OC)nc1OC,26.8%
Cc1cc(=O)n2c3ccccc3nc2n1CC(=O)c1ccco1,2.23%
CCc1c[nH]c2ncnc(NCC(Cc3ccccc3)c3ccccn3)c12 (stereo not drawn),0.12%
COC(=O)C1(NC(=O)c2ccc(CN3CC(C)OC(C)C3)cc2)CCS(=O)(=O)CC1 (stereo not drawn),98.1%

# Sample 4
# Structure (SMILES): COc1ccc2c(c1)c(C1=C(c3c[nH]c4ccccc34)C(=O)NC1=O)cn2CCCN(C)C
# Effect on: enzyme activity
# Mode: inhibitor
# Tested at: 0.5 µM
# Relative to: control
target,remaining activity [%]
"AKT1 (Homo sapiens, UniProt P31749)",99
"Insulin receptor (INSR, Homo sapiens, UniProt P06213)",94.1
"PKN1 (Homo sapiens, UniProt Q16512)",34.7
"PASK (Homo sapiens, UniProt Q96RG2)",83.8
"HIPK1 (Homo sapiens, UniProt Q86Z02)",77.7
"FER (Homo sapiens, UniProt P16591)",70.9
"LIM domain kinase 1 (LIMK1, Homo sapiens, UniProt P53667)",81.8
"ALK (Homo sapiens, UniProt Q9UM73)",96
"STK25 (Homo sapiens, UniProt O00506)",55.7
"MATK (Homo sapiens, UniProt P42679)",99.3
"NLK (Homo sapiens, UniProt Q9UBE8)",87.9
"PRKX (Homo sapiens, UniProt P51817)",102
"CDC42BPA (Homo sapiens, UniProt Q5VT25)",89.2
"FGR (Homo sapiens, UniProt P09769)",107
"SRC (Homo sapiens, UniProt P12931)",79.8
"NEK11 (Homo sapiens, UniProt Q8NG66)",91.6
"MARK3 (Homo sapiens, UniProt P27448)",92.2
"FYN (Homo sapiens, UniProt P06241)",110
"TAOK3 (Homo sapiens, UniProt Q9H2K8)",78.2
"Cyclin-dependent kinase 3, with cyclin E (CDK3, Homo sapiens, UniProt Q00526)",78.8
"ITK (Homo sapiens, UniProt Q08881)",70.4
"FLT4 (Homo sapiens, UniProt P35916)",23.6

# A few entries again (sample 4):
target,remaining activity [%]
"AKT1 (Homo sapiens, UniProt P31749)",99
"CDC42BPA (Homo sapiens, UniProt Q5VT25)",89.2
"Insulin receptor (INSR, Homo sapiens, UniProt P06213)",94.1
"FGR (Homo sapiens, UniProt P09769)",107
"PASK (Homo sapiens, UniProt Q96RG2)",83.8
"ITK (Homo sapiens, UniProt Q08881)",70.4
